Measured values gathered from unrelated publications.
Each numbered part is a random draw from the data of one study; scales do not carry over between parts.

Set 1 — method: protein binding microarray; molecule type: double-stranded DNA, one strand shown; sample: in vitro; tested at: not given; reference: not given; direction: higher = stronger binding; endpoint: E-score
Target: Histone acetyltransferase KAT6A, winged helix 2, GST fusion (KAT6A, Homo sapiens, UniProt Q92794, residues 85-181)
Notes: 8-mer, flanks averaged, mean of 2 arrays, mostly near background
Residues (chain): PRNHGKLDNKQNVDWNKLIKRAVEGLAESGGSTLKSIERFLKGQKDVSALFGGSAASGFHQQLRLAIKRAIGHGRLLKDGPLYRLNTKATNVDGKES
AGGGCCCA: 0.0302
CATTACAG: -0.126
TATATCAA: -0.00091
AGGGTGAG: -0.0222
GTCCATAA: -0.131
AATATGAT: 0.0526
AGCCGACC: -0.0465
AGGGATTG: 0.0665
GACAAGTC: -0.0407
ATCACACG: -0.149
GTTTATGA: 0.0373
GGACAGTA: 0.0709
AGATCCCA: 0.00549
ATTGTATG: 0.0411
AAACACTT: -0.0659
CCTCTATC: -0.0568
GAACCAAC: 0.0917
AACGGAGC: -0.103
ATTTACCG: -0.107
CCGAGGGC: 0.116
GAGCAGCC: 0.118
GAACGCTA: -0.0966
CCGCGCTA: 0.22
GCGATAAC: -0.0595
AAGGTGCA: -0.0771

Set 2 — method: universal PBM; molecule type: double-stranded DNA, one strand shown; sample: in vitro; tested at: not given; direction: higher = stronger binding; endpoint: E-score
Target: Sal-like protein 4, full length isoform B (SALL4, Homo sapiens, UniProt Q9UJQ4-2, residues 1-616)
Notes: 8-mer, flanks averaged, mean of replicates
GTAGACTA: -0.0915
CGCGCCTA: -0.0471
AAGATAGC: 0.0548
CGTGATTC: 0.0424
CGACGTGA: -0.018
AACGTAAC: 0.0927
GACGCGTA: 0.0724
TCAAAGAA: 0.157
GCAAACAA: 0.109
AGTAACAG: 0.157
AAATCGTA: 0.258
ACGACTGC: -0.126
CACAAACG: 0.0163
GCACCAGA: -0.187
TACTACTA: 0.235
CAGACGAA: 0.0832
ACACCCTA: 0.0438
AATAGCAG: -0.018
ACCTCGAC: -0.0149
CACTGGAA: -0.0895
CCCAGCGC: -0.332
CTGCTCGA: -0.192
AAGTCGAA: -0.0753

Set 3 — method: protein-binding microarray; molecule type: double-stranded DNA, one strand shown; sample: in vitro; tested at: not given; direction: higher = stronger binding; endpoint: E-score
Target: Max-binding protein MNT, bHLH-zipper, MAX partner unstated (MNT, Homo sapiens, UniProt Q99583, residues 220-300)
Notes: k-mer, scored over probes, only values ≥0.25
Residues (chain): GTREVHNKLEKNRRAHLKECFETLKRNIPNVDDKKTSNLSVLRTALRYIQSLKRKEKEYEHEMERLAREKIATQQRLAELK
TACCACGA: 0.276
CGCGTGAG: 0.353
GTGGACAC: 0.262
ACATTGCA: 0.271
AACGTGCC: 0.397
AAACGTGT: 0.402
ATGGGGCA: 0.276
CTCATGCA: 0.297
CGTGGGGA: 0.366
CCCATGCA: 0.349
CGTGTCCC: 0.343
AACGCGTG: 0.444
CGTGTGCC: 0.33
CCACGCGC: 0.433
CCCGCCTC: 0.27
CACGAGTC: 0.393
CAGCACGA: 0.338

Set 4 — method: RNA Bind-n-Seq; molecule type: RNA; sample: in vitro; tested at: 1 µM; notes: whole 134-nt RNA, ends assumed; added: 150 mM KCl; reference: input library; direction: higher = stronger binding; endpoint: log2 enrichment
Target: Ras GTPase-activating protein-binding protein 1, C-terminal RGG region (G3BP1, Homo sapiens, UniProt Q13283)
Sequence of UniProt Q13283 (whole entry, looked up): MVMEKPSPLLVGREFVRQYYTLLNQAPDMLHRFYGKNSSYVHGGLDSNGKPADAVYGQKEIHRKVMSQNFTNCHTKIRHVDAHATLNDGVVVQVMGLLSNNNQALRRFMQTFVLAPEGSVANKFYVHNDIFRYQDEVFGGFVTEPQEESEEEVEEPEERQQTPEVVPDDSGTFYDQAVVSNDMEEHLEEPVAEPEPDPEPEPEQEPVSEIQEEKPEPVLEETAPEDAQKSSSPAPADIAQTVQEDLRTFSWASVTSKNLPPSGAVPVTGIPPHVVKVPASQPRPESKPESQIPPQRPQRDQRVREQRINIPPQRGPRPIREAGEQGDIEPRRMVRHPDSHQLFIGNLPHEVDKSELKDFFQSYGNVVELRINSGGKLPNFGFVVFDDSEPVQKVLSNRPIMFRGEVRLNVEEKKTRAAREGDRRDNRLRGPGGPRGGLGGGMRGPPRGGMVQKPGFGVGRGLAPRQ
Constant ends, left off below: GGGAGUUCUACAGUCCGACGAUC … UGGAAUUCUCGGGUGUCAAGG
CACAGACAACACGCAAAAACACAGACACAGAGGGAAGGGGUUGGGAUGGGGACAGGGUGCACAGCAGGGCGGGGUAGGACCCCAGCCCCU: -0.116
CCUGUGCUACACAUCGUAUGUACCGAAUCGGGGAGGGGAAAAAAAGGGGAAAAAAAGGGGAAAGUAUUAUGUUACGCCGUUCGGAUCUGC: -0.0976
CCUGUGCUACACAUCGUAUGUACCGAAUCGGGGUUUUUUUGGUUUUUUUGGUUUUUUUGGGAAAGUAUUAUGUUACGCCGUUCGGAUCUG: -1.7
CAAGUCCUGUGCUACACAUCGUAUGUACCGAAUCGGGCCCGGGCCCGGCCCGGGGAAAGUAUUAUGUUACGCCGUUCGGAUCUGCACUUC: -2.07
CUCAAGUCCUGUGCUACACAUCGUAUGUACCGAAUCGGGUUGGGUUGGGGUUGGAAAGUAUUAUGUUACGCCGUUCGGAUCUGCACUUCC: 0.00258
GUCCUGUGCUACACAUCGUAUGUACCGAAUCGGGAAAAAAAGGGAAAAAAAGGGAGGGAAAGUAUUAUGUUACGCCGUUCGGAUCUGCAC: 0.37
AGUCCUGUGCUACACAUCGUAUGUACCGAAUCGGGGAAAAAGGGAAAAAGGAAAAAGGAAAGUAUUAUGUUACGCCGUUCGGAUCUGCAC: -1.87
UUCACUCUUUGAAGGAACGUGGUACUUAGUUAGGGUGGAUGAAAAGCACAGAAGAACUUACGCUCGGCGUCCCACUCCAAAUGAUGACAC: -0.0571
CACAGACAACACGCACGCACACAGACACAGAGGGAAGGGGUUGGGAUGGGGACAGGGUGCACAGCAGGGCGGGGUAGGACCCCAGCCCCU: -0.212
UCCUCAAGUCCUGUGCUACACAUCGUAUGUACCGAAUCGGCGGCGGCGGGGAAAGUAUUAUGUUACGCCGUUCGGAUCUGCACUUCCAGC: -0.959

Set 5 — method: RNA Bind-n-Seq; molecule type: RNA; sample: in vitro; tested at: 365 nM; reference: no-protein control; direction: higher = stronger binding; endpoint: RBNS enrichment (R)
Target: RNA binding protein fox-1 homolog 2, RRM domain, GST-SBP tag (RBFOX2, Homo sapiens, UniProt O43251-10, residues 100-194)
Notes: natural RNA segment, single round, ends assumed
Constant ends, left off below: GGGAGUUCUACAGUCCGACGAUC … UGGAAUUCUCGGGUGCCAA
Target sequence (chain): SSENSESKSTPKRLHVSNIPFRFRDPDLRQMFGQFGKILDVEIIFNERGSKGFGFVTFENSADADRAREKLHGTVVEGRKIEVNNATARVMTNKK
AGGAGCUCACAGUCUAGCCUACUCCCUGGCUGGAAGCCUCAGGAAGACGUGCUAAUUUAUUGUGGAAUUGGUAGUUUGCUUUUCAUGCCCCUGUCUUCCUUCUCAUGACC: 0.496
CACUGUGCUCACGACUGGAAAGUAGCCUUUUUCUUCUAUCAAUGUUUACCAUAAAGUUCCUUUCUCAGUAGAUUUUUCUUUCUUUUUUAAAAGAGGUGGUUGGCAAUUUA: 0.537
ACAAAAUCGAGAAUGUAUCCCCAGAAUCAGUACAGCCAGUUGUUUGAACAUUCUUAAAGUAUCUCGUGGUAUAAUUUCUGUUGACUUCAAGCUUUAAUUUGGAUCCACAC: 0.428
UUCUUAGAGACUGCUUCUCCCAAACAUAACGCGUUAGCCAUGAAGGAGUCGGAGCCCUGGGUCCGAAUGGACCCGCCUGCGGUCUGCAUCAGCCUCUGGGAAACCACAGC: 0.255
UCCUCCAGUUUUUAAUUUACUUUCGGAGUUUGUGUUGAUUUUGAUGGCACGUGACUUUUAAGCAGUAGGAUUUUGCCAAGCAGAAUUUUUGAAGGCAUGAGGCCAGUGAC: 0.618
UAUGCGGAGACUGAUACAUUUUCUUAAUGGACAAUGUUCAAGCCAGGUACCCAUGCUUGAUCUGUCUUCACACCAGACCUCCUCAUAUUAAAAGGAAAAAUAAGAAAAAA: 0.569
GACUCGCUUCCCAUCCUGGCAUAGAGUGGGGGAUGGCUGGAGGGUGUCUAUAGGUACAGCCCGCUCUGGCUGCUGCCAGGUGGGCCCCUGCCAGGGGUCCUCACCCCUGU: 0.334
UUAAGUGAGAUGGAAAAGCUGAAUGCUGACACACCCCACCCAUAAGCAAAGUAUCAACGCUUUCUGAUUUCCAGUACUGGGUGUUGAACCCAGAGCCUUUUAUAUGCUGG: 0.289
AAGAUGCAAGGGAACAUGGGGUCAAAGGGGCCACCCACCACAUCUGAUGAUAUGUUAGUUUUGUUGUUCUUUGGGGUUUUAUUCUUCCAGGUAUGUUAUGCACUACAGCC: 10.5
UGGUCACUCCUUCGGUGAGACCUCACUGUUCCUGGCUCUUCAUCCUCUUCAAAAAAUUUGCAUGUCUGCUGUGAAUUUUCAUCUAGUUCCCCAAUCGAUGCUCUCAGGGU: 1.39
UAACAUUGAAUACCAGGCUACAUGUGCCCCCGGGUUCCUUCCUAGAAAUGUGGCAGCCCAUUCCAGCACACAGGCUUCUGCAGCAAUCUCUGAGGGUAAAGCCGGUGGGA: 0.384
ACAGUCCUUUAUCCACCUGGAUUUUUAGGGAAAAAAAUGAAAAAGAAUAAGUCACAUUGGUUCCAUGGCCACAAACCAUUCAGAUCAGCCACUUGCUGACCCUGGUUCUU: 0.324

A few entries again (set 2):
CGACGTGA: -0.018
AACGTAAC: 0.0927
GACGCGTA: 0.0724
TCAAAGAA: 0.157
GCAAACAA: 0.109
AGTAACAG: 0.157
AAATCGTA: 0.258
